{"data": "Assay results of several laboratories", "note": "Numbered parts are unrelated; each lists some results of a single study.", "UniProt Q9Y6R4, sequence (whole entry, looked up)": "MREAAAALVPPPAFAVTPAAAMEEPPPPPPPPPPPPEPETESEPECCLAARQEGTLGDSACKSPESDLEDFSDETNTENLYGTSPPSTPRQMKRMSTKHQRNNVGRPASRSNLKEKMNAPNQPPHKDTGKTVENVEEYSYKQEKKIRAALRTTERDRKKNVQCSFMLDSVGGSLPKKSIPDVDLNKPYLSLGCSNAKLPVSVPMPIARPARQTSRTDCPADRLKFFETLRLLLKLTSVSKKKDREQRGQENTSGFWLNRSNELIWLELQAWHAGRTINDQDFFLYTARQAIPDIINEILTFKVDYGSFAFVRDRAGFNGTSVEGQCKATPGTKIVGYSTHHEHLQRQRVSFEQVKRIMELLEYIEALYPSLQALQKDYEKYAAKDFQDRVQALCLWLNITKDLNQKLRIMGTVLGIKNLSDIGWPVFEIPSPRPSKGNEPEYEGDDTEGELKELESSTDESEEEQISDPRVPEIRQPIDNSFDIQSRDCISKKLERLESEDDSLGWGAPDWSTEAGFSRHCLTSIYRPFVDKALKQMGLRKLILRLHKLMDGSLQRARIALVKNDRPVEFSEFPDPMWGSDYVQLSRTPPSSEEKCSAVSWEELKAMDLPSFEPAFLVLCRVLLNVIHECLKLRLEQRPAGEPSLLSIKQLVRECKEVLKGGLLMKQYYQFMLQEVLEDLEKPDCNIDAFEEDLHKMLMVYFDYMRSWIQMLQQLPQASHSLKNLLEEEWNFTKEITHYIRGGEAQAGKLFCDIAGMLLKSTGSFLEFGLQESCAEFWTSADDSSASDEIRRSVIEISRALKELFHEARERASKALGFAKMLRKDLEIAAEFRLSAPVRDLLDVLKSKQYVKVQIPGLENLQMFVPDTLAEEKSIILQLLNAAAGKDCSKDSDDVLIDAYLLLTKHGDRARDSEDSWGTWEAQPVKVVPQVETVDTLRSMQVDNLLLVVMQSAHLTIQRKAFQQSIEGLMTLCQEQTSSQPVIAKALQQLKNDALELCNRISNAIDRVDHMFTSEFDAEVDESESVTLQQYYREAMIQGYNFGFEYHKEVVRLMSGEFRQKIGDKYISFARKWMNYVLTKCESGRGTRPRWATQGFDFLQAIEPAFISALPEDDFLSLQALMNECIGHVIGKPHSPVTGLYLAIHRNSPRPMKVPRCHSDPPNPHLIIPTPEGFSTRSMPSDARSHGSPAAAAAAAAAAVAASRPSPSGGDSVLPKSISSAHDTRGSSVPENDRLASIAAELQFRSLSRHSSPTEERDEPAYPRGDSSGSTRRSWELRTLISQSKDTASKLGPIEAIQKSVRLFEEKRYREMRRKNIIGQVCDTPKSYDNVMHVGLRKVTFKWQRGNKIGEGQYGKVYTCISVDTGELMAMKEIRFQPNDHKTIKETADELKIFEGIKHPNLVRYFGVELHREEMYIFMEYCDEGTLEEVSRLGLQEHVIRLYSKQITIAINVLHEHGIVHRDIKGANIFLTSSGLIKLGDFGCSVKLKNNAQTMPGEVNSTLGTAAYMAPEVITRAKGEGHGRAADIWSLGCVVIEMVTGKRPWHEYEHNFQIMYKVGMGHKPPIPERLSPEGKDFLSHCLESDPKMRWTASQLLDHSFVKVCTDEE", "UniProt O15111, sequence (whole entry, looked up)": "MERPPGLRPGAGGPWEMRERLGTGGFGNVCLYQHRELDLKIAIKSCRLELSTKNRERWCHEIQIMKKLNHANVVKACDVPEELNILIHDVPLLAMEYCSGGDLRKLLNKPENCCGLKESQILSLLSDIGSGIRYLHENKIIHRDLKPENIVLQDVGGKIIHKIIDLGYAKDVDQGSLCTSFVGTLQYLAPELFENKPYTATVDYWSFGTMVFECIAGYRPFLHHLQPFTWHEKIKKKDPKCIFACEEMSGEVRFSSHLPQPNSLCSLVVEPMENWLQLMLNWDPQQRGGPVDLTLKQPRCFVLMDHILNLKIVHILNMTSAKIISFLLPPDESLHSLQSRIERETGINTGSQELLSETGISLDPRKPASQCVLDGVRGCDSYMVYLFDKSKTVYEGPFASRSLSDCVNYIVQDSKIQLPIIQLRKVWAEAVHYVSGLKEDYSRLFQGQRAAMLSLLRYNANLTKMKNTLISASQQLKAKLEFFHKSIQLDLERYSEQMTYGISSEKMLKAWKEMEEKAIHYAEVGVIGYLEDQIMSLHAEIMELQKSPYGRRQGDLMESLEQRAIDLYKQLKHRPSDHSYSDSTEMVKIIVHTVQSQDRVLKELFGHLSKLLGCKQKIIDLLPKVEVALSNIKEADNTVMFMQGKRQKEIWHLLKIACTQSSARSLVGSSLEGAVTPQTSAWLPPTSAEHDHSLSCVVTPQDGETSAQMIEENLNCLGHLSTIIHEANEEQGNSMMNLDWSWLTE", "UniProt P48730, sequence (whole entry, looked up)": "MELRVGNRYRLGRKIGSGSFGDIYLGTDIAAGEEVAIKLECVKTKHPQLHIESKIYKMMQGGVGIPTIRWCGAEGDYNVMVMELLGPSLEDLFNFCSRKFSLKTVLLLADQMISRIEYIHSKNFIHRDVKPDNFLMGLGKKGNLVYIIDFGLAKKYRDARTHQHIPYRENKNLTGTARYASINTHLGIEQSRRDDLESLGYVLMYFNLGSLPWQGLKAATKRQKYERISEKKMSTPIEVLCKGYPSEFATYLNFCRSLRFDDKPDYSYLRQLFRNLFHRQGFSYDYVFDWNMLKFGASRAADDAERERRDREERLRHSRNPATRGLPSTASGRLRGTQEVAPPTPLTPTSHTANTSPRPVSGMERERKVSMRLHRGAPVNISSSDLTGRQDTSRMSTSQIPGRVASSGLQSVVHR", "UniProt Q9H2K8, sequence (whole entry, looked up)": "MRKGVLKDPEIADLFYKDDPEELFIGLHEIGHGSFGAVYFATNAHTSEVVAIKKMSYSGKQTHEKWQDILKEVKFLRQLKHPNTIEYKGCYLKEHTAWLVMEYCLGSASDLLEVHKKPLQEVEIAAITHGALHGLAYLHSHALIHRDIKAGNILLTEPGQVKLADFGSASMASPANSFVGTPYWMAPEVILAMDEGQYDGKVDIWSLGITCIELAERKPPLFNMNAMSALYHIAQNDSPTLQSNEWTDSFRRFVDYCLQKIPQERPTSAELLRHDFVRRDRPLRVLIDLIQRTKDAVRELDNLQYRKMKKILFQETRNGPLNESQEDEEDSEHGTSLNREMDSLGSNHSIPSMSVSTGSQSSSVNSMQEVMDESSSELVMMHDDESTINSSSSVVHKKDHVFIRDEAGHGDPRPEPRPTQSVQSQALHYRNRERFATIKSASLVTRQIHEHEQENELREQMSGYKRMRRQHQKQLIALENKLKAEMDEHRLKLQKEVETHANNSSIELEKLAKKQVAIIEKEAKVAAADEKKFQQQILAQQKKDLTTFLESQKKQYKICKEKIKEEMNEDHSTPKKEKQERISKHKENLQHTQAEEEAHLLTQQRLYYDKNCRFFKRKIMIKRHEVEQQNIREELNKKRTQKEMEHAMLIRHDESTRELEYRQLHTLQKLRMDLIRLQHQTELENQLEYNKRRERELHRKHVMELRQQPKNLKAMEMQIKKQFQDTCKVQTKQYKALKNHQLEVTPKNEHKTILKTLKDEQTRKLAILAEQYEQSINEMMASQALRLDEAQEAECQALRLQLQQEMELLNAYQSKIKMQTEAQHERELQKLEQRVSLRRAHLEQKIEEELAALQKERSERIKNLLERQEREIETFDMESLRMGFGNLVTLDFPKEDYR", "UniProt P53671, sequence (whole entry, looked up)": "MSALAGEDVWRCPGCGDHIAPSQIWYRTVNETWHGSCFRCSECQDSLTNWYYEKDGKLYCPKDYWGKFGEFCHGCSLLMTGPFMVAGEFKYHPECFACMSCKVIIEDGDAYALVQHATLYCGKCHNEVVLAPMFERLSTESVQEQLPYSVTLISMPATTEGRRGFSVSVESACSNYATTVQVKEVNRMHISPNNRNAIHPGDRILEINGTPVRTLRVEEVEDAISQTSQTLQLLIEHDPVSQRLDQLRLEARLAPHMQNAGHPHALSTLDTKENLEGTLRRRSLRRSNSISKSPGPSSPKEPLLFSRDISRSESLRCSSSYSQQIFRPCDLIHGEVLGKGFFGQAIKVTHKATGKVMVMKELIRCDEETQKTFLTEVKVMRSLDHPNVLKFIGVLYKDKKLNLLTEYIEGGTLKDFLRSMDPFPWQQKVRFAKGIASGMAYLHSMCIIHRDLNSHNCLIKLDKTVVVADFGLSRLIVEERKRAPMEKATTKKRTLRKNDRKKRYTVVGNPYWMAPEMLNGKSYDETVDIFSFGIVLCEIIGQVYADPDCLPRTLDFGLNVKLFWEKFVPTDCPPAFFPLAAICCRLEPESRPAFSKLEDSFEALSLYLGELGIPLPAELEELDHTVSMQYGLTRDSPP"}
{"data": "Set 1", "target": "Serine/threonine-protein kinase 26 (STK26, Homo sapiens, UniProt Q9P289)", "read-out": "enzyme activity", "mode": "inhibitor", "concentration": "0.5 µM", "relative to": "control", "UniProt Q9P289, sequence (whole entry, looked up)": "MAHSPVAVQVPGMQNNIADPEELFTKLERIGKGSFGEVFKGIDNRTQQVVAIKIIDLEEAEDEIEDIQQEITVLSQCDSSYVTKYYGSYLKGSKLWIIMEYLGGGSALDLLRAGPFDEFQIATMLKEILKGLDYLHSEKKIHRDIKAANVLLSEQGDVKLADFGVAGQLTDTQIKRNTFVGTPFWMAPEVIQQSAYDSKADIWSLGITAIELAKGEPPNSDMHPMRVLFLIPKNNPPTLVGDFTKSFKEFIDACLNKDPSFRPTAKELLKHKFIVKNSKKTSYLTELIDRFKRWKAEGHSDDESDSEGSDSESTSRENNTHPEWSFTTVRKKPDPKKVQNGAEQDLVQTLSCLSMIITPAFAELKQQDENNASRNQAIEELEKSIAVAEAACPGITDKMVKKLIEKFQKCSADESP"}
{"SMILES": "O=C(Nc1cccc(Nc2cc(Nc3cccc(C(F)(F)F)c3)ncn2)c1)C1CC1", "remaining activity [%]": 98.9}
{"SMILES": "Nc1[nH]nc2nc3ccccc3nc12", "remaining activity [%]": 91.2}
{"SMILES": "COc1cc2nccc(Oc3ccc(NC(=S)NC(=O)c4ccccc4C)cc3)c2cc1OC", "remaining activity [%]": 101}
{"SMILES": "O=S(=O)(c1cccc2cnccc12)N1CCCNCC1", "remaining activity [%]": 90}
{"SMILES": "CN(C)c1ccc(C=C2C(=O)Nc3ccccc32)cc1", "remaining activity [%]": 90.9}
{"SMILES": "Cc1nc(-c2ccccc2)c(-c2ccncc2)o1", "remaining activity [%]": 114}
{"SMILES": "Cc1ccc(NC(=O)c2ccc(CN3CCN(C)CC3)cc2)cc1Nc1nc(-c2cccnc2)cs1", "remaining activity [%]": 97}
{"SMILES": "COc1ccc(C(=O)Nc2sc3c(c2C(N)=O)CCCC3)cc1OC", "remaining activity [%]": 96.6}
{"SMILES": "O=C1NC(=O)C(c2cn(CCCO)c3ncccc23)=C1c1cnccn1", "remaining activity [%]": 78.7}
{"SMILES": "N#CC(C#N)=C(N)/C(C#N)=C/c1ccc(O)cc1", "remaining activity [%]": 101}
{"SMILES": "COc1cc2ncnc(Nc3ccc(Oc4ccccc4)cc3)c2cc1OC", "remaining activity [%]": 102}
{"SMILES": "CO[C@H]1C[C@@H]2CC[C@@H](C)[C@@](O)(O2)C(=O)C(=O)N2CCCC[C@H]2C(=O)O[C@H]([C@H](C)C[C@@H]2CC[C@@H](O)[C@H](OC)C2)CC(=O)[C@H](C)/C=C(\\C)[C@@H](O)[C@@H](OC)C(=O)[C@H](C)C[C@H](C)/C=C/C=C/C=C/1C", "remaining activity [%]": 113}
{"SMILES": "Nc1ncnc2n[nH]c(Nc3ccc(F)cc3)c12", "remaining activity [%]": 91}
{"SMILES": "OCC(O)CCON=C1C(c2c(O)[nH]c3ccccc23)=Nc2ccccc21 (centres unmarked)", "remaining activity [%]": 73.1}
{"SMILES": "O=c1c2ccccc2[nH]c(=S)n1CCN1CCC(=C(c2ccc(F)cc2)c2ccc(F)cc2)CC1", "remaining activity [%]": 91.6}
{"data": "Set 2", "target": "Interferon regulatory factor 5, full length, phosphomimetic (IRF5, Homo sapiens, UniProt Q13568-2, residues 1-514, S451D/S453D/S456D/S462D)", "technique": "protein-binding microarray", "form": "double-stranded DNA, one strand shown", "matrix": "in vitro", "concentration": "940 nM top", "setting": "60-bp whole probe", "with": "salmon DNA 0.4 mg/ml", "relative to": "random background probes", "direction": "higher = stronger binding", "all sequences stand within": "GCCTAGCAC … GTCTTGATTCGCTTGACGCTGCTG"}
{"Strand": "TCATGGTTCTGCTTCTTACTGTGCTAG", "fitted relative affinity [z-score]": 0.613}
{"Strand": "TCTTTTCTGTTGTCTGTGTTTGTGCTA", "fitted relative affinity [z-score]": 2.46}
{"Strand": "TGAGGTATCCTTATCCTTTAGTGCTAG", "fitted relative affinity [z-score]": 0.0726}
{"Strand": "TTAGGCTTCGGGTATCGGTTAGTGCTA", "fitted relative affinity [z-score]": 2.59}
{"Strand": "TTAGGTTTCGGCACTGGGTTAGTGCTA", "fitted relative affinity [z-score]": 8.57}
{"Strand": "GCCGGACTGGGTATCGGGACGTGCTAG", "fitted relative affinity [z-score]": 0.941}
{"Strand": "TTAGGTTCCCTTTTTCTTTAGTGCTAG", "fitted relative affinity [z-score]": 1.27}
{"Strand": "TTGTGTTTGTCCCTATTTAAGTGCTAG", "fitted relative affinity [z-score]": 0.929}
{"data": "Set 3", "target": "Prothrombin, mature alpha-thrombin (F2, Homo sapiens, UniProt P00734)", "technique": "aptamer microarray, sandwich", "form": "DNA with 2'F-ANA", "matrix": "in vitro", "concentration": "200 nM", "setting": "whole 15-mer aptamer, many near background", "with": "Cy3 exosite-II aptamer, 400 nM", "direction": "higher = stronger binding", "strand": "GGTTGGTGTGGTTGG"}
{"Modification": "2'F-ANA at 1 3 4 5 7 9 10 14", "mean fluorescence intensity [a.u.]": 43.4}
{"Modification": "2'F-ANA at 1 2 3 4 8 9 10 11 12 13 14 15", "mean fluorescence intensity [a.u.]": 51.1}
{"Modification": "2'F-ANA at 4 5 7 10 12 15", "mean fluorescence intensity [a.u.]": 49.6}
{"Modification": "2'F-ANA at 1 2 4 6 7 9 11 12 13 15", "mean fluorescence intensity [a.u.]": 122}
{"Modification": "2'F-ANA at 4 5 10 11 14", "mean fluorescence intensity [a.u.]": 43.8}
{"Modification": "2'F-ANA at 1 2 7 8 9 10 12 13 14 15", "mean fluorescence intensity [a.u.]": 51.1}
{"Modification": "2'F-ANA at 1 3 4 6 7 8 14 15", "mean fluorescence intensity [a.u.]": 80.1}
{"Modification": "2'F-ANA at 1 2 4 6 7 9 10 11 12", "mean fluorescence intensity [a.u.]": 55.7}
{"data": "Set 4", "Compound": "CC(C)(O)c1cncc(-c2nc3ccc(F)cc3n2C2CC2)c1", "concentration": "1 µM"}
{"target": "CDK13 (Homo sapiens, UniProt Q14004)", "test": "cell-free assay, competition with immobilised ligand", "remaining binding [%]": 96}
{"target": "Ribosomal protein S6 kinase alpha-6, C-terminal kinase domain (RPS6KA6, Homo sapiens, UniProt Q9UK32)", "test": "cell-free assay, competition with immobilised ligand", "remaining binding [%]": 100}
{"target": "GSK3B (Homo sapiens, UniProt P49841)", "test": "cell-free assay, competition with immobilised ligand", "remaining binding [%]": 100}
{"target": "FLT3 (Homo sapiens, UniProt P36888, D835V/ITD)", "test": "cell-free assay, competition with immobilised ligand", "remaining binding [%]": 83}
{"target": "AAK1 (Homo sapiens, UniProt Q2M2I8)", "test": "binding", "remaining binding [%]": 100}
{"target": "EPHA8 (Homo sapiens, UniProt P29322)", "test": "cell-free assay, competition with immobilised ligand", "remaining binding [%]": 100}
{"target": "ERN1 (Homo sapiens, UniProt O75460)", "test": "cell-free assay, competition with immobilised ligand", "remaining binding [%]": 100}
{"target": "MAP3K19 (Homo sapiens, UniProt Q56UN5)", "test": "cell-free assay, competition with immobilised ligand", "remaining binding [%]": 93}
{"target": "EGFR (Homo sapiens, UniProt P00533, del747-750/T751S)", "test": "cell-free assay, competition with immobilised ligand", "remaining binding [%]": 100}
{"target": "TAOK3 (Homo sapiens, UniProt Q9H2K8)", "test": "cell-free assay, competition with immobilised ligand", "remaining binding [%]": 100}
{"target": "MET (Homo sapiens, UniProt P08581, Y1235D)", "test": "cell-free assay, competition with immobilised ligand", "remaining binding [%]": 100}
{"target": "MAP3K4 (Homo sapiens, UniProt Q9Y6R4)", "test": "cell-free assay, competition with immobilised ligand", "remaining binding [%]": 100}
{"target": "CDK19 (Homo sapiens, UniProt Q9BWU1)", "test": "competition binding", "remaining binding [%]": 94}
{"target": "EPHA7 (Homo sapiens, UniProt Q15375)", "test": "cell-free assay, competition with immobilised ligand", "remaining binding [%]": 100}
{"target": "LIM domain kinase 2 (LIMK2, Homo sapiens, UniProt P53671)", "test": "cell-free assay, competition with immobilised ligand", "remaining binding [%]": 100}
{"target": "SRC (Homo sapiens, UniProt P12931)", "test": "cell-free assay, competition with immobilised ligand", "remaining binding [%]": 100}
{"target": "CHUK (Homo sapiens, UniProt O15111)", "test": "cell-free assay, competition with immobilised ligand", "remaining binding [%]": 100}
{"target": "STK11 (Homo sapiens, UniProt Q15831)", "test": "cell-free assay, competition with immobilised ligand", "remaining binding [%]": 98}
{"target": "Receptor-type tyrosine-protein kinase FLT3, autoinhibited (FLT3, Homo sapiens, UniProt P36888)", "test": "cell-free assay, competition with immobilised ligand", "remaining binding [%]": 100}
{"target": "CSNK1D (Homo sapiens, UniProt P48730)", "test": "cell-free assay, competition with immobilised ligand", "remaining binding [%]": 100}
{"target": "BMPR1B (Homo sapiens, UniProt O00238)", "test": "cell-free assay, competition with immobilised ligand", "remaining binding [%]": 96}
{"target": "FLT3 (Homo sapiens, UniProt P36888, D835H)", "test": "cell-free assay, competition with immobilised ligand", "remaining binding [%]": 89}
{"note": "Some of these lines once more (set 1):"}
{"SMILES": "O=c1c2ccccc2[nH]c(=S)n1CCN1CCC(=C(c2ccc(F)cc2)c2ccc(F)cc2)CC1", "remaining activity [%]": 91.6}
{"SMILES": "Cc1nc(-c2ccccc2)c(-c2ccncc2)o1", "remaining activity [%]": 114}
{"SMILES": "CO[C@H]1C[C@@H]2CC[C@@H](C)[C@@](O)(O2)C(=O)C(=O)N2CCCC[C@H]2C(=O)O[C@H]([C@H](C)C[C@@H]2CC[C@@H](O)[C@H](OC)C2)CC(=O)[C@H](C)/C=C(\\C)[C@@H](O)[C@@H](OC)C(=O)[C@H](C)C[C@H](C)/C=C/C=C/C=C/1C", "remaining activity [%]": 113}
{"SMILES": "COc1cc2nccc(Oc3ccc(NC(=S)NC(=O)c4ccccc4C)cc3)c2cc1OC", "remaining activity [%]": 101}
{"SMILES": "Nc1[nH]nc2nc3ccccc3nc12", "remaining activity [%]": 91.2}
